Published values pooled from the literature.
Numbered parts are unrelated; each lists some results of a single study. Changes are numbered by the printed parent chain.

Study 1
Target: Centromere-binding protein 1, full length, N-terminal tag (CBF1, Saccharomyces cerevisiae, UniProt P17106, residues 1-351)
Technique: protein-binding microarray
Form: double-stranded DNA, one strand shown
Sample: in vitro
Tested at: 0.8 µM
Setting: whole 60-bp probe, no competitor
Direction: higher = stronger binding
Constant ends, left off below: … GTCTTGATTCGCTTGACGCTGCTG
Sequence	fluorescence intensity [a.u.]
GAATATTGTTTGGTGAACGTGGCACTGGTGGTATAG	574
GAAGAAGGAGAGAATCACGCAAAAATCACATTATAG	539
CTAAGGTTCCTAGATCAGATGAAGCCTTTTGTATTC	526
CTATGCTTACCCTCCCACGTGCTAGATTTTTCGTTC	6090
CTATTCTTGTTGAGAAACGTGGTTGTATCCTTTTTC	600
CCTAACTACTATAACCACGCTTAATAGCTTCGTACA	539
CTAGCATCTAGAACAGCTGAGATGAAAGAGGATTTC	546
GAAGACTGTGACTACCTCCTGACTTCCTGTCATTAG	626
GAACAGATATTAGGTGGTGGTACCAGGGCCTGCTAG	473
CTATTGAGTCCACTGCATGTGGAAAACAGAGTTTTC	558
CTAGTCACTGTCAAACACGTTGCATTGATTAGATTC	576
CCTAACTACTATATGCATGCGTAATAGCTTCGTACA	540
GAAAAGGAAATATTCCACATGTCGGATTAATTTTAG	566
CTATTTCTTTGGGTTTACGTGGGTTCAGCACTTTTC	571
GAAATACGGAGGTACCCCGTGTTGAGATCCAACTAG	612
TGTACGAAGCTATACCACGTTAATATAGTAGTTAGG	550
CTAAGGGTACATTGCATCATGACTATTCGTGGTTTC	511
CTAAATAACACTAGTAACATCAACAACACCAATTTC	492

Study 2
Target: UBE2D1 UBC core domain (UniProt P51668)
Technique: yeast two-hybrid
Sample: yeast
Setting: mostly zero background
Relative to: not given
Direction: higher = stronger interaction
B1: MDM4 RING domain (UniProt O15151); chain MEDCQNLLKPCSLCEKRPRDGNIIHGRTGHLVTCFHCARRLKKAGASCPICKKEIQLVIKVF
B2: RNF121 RING domain (UniProt Q9H920); chain MPTKHLSDSVCAVCGQQIFVDVSEEGIIENTYRLSCNHVFHEFCIRGWCIVGKKQTCPYCKEKVDLKRMFS
B3: DZIP3 RING domain (UniProt Q86Y13); chain PDEEEEEEEPCVICHENLSPENLSVLPCAHKFHAQCIRPWLMQQGTCPTCRLHVLLPEEFP
B4: SYTL4 RING domain (UniProt Q96C24); chain RGSQHYSDRTCARCQESLGRLSPKTNTCRGCNHLVCRDCRIQESNGTWRCKVCAKEIELKKAT
B5: MAP3K1 RING domain (UniProt Q13233); chain NSIKDEEEQMCPICLLGMLDEESLTVCEDGCRNKLHHHCMSIWAEECRRNREPLICPLCRSKWRSHDFYS
B6: RFWD3 RING domain (UniProt Q6PCD5); chain ASMDEEEGDTCTICLEQWTNAGDHRLSALRCGHLFGYRCISTWLKGQVRKCPQCNKKARHSDIVV
B7: UBOX5 RING domain (UniProt O94941); chain EQPGSILGPECASCKRVFSPYFKKEPVYQLPCGHLLCRPCLGEKQRSLPMTCTACQRPVASQDVLR
Molecule	lacZ reporter activity
GSDDEEIPFKCFICRQSFQNPVVTKCRHYFCESCALQHFRTTPRCYVCDQQTNGVFNPA (RNF113A RING domain (UniProt O15541))	0
B1 (MDM4 RING domain)	0
NLSELTPYILCSICKGYLIDATTITECLHTFCKSCIVRHFYYSNRCPKCNIVVHQTQPLY (PCGF6 RING domain (UniProt Q9BYE7))	0
B2 (RNF121 RING domain)	0
B3 (DZIP3 RING domain)	0
B4 (SYTL4 RING domain)	0
KETIKKTTKPCPRCHVPVEKNGGCMHMKCPQPQCRLEWCWNCGCEWNRVCMG (PRKN RING domain (UniProt O60260))	0
B5 (MAP3K1 RING domain)	14700
AMYLQENGIDCPKCKFSYALARGGCMHFHCTQCRHQFCSGCYNAFYAKNKC (RNF31 RING domain (UniProt Q96EP0))	0
B6 (RFWD3 RING domain)	11100
B7 (UBOX5 RING domain)	0
PEDRESLKSACVVCLSSFKSCVFLECGHVCSCTECYRALPEPKKCPICRQAITRVIPLY (MUL1 RING domain (UniProt Q969V5))	14100
YQNEVDDDLVCHICLQPLLQPLDTPCGHTFCYKCLRNFLQEKDFCPLDRKRLHFKLCKK (LNX2 RING domain (UniProt Q8N448))	0

Study 3
Target: FOSL1, bZIP domain (human)
Technique: DHFR protein complementation
Sample: yeast
Setting: single substitutions, most at no-binding floor
Relative to: wild-type JUN-FOS pair
Direction: higher = stronger binding
Starting sequence: JUN, bZIP domain (human); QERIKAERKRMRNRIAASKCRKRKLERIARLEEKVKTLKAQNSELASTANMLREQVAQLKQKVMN; partner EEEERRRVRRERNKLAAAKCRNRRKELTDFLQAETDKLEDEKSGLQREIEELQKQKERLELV
Substitution	binding fitness
R53Y	-1.25 natural log
A40N	-0.534 natural log
A57Y	-0.559 natural log
V35H	-1.1 natural log
R53I	-1.4 natural log
T37M	-0.0901 natural log
L59H	-1.37 natural log
A57W	-0.685 natural log
K34F	-1.16 natural log
E44M	-0.427 natural log
S43V	-0.528 natural log
V35A	-0.779 natural log
R53D	-1.45 natural log
E32G	-0.612 natural log
A29Y	-0.671 natural log
I28M	-0.531 natural log
E32N	-0.63 natural log
S47R	-0.252 natural log
A49F	-1.38 natural log
S43T	-0.322 natural log
M51L	-0.292 natural log
A57L	-0.715 natural log
Q41T	-0.517 natural log
R53H	-1.14 natural log

Study 4
Target: CCNF, cyclin fold, Cln2 fusion (human)
Technique: yeast growth competition, sequencing
Sample: yeast
Setting: weak parent motif
Relative to: not given
Direction: higher = stronger binding
Starting sequence: DBF4 docking peptide (human); DDIVSKLVFDFVE
Substitution	normalised enrichment score
DDAVSKLVFDFVE [I3A]	0.115
DDIVSKLVFDFVA [E13A]	0.0689
DDIVSKLVADFVE [F9A]	-0.78
DDIVSALVFDFVE [K6A]	-0.329
DDIVSKLVFDFAE [V12A]	-0.299
DDIASKLVFDFVE [V4A]	0.0593
DAIVSKLVFDFVE [D2A]	0.479
